Measured values gathered from unrelated publications.
Lines come from different studies, so protocols differ. Several values in a cell are separate wells, animals, samples, runs or records. ± gives the spread as reported.
CALM1 Ca2+-bound N-lobe: Calmodulin-1, Ca2+-bound N-lobe (CALM1, Homo sapiens, UniProt P0DP23)
WD repeat-containing protein 91 WD40 domain, residues 392–747: WD repeat-containing protein 91, WD40 domain, residues 392–747 (Homo sapiens, UniProt A4D1P6)
Sequence of UniProt A4D1P6 (whole entry, looked up): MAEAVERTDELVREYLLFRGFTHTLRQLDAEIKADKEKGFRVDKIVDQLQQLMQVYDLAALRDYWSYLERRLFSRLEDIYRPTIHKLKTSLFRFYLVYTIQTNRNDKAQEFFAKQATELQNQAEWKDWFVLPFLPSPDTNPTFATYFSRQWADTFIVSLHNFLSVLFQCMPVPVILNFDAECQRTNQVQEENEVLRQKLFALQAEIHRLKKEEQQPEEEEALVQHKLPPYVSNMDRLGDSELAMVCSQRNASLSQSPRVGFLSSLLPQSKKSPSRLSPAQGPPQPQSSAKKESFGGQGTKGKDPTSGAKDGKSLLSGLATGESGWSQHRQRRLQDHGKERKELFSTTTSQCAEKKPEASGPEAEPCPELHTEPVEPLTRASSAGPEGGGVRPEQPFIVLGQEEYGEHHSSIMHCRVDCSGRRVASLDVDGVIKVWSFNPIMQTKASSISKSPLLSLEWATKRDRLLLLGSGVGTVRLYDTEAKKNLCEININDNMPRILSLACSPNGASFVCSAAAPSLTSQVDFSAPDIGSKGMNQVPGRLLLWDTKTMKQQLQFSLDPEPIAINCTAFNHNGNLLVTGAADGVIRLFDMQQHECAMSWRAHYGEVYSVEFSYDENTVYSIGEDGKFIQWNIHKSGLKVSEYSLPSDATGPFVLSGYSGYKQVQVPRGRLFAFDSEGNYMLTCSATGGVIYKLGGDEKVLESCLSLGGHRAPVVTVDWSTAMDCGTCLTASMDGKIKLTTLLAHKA
CDK2: Cyclin-dependent kinase 2 (CDK2, Homo sapiens, UniProt P24941)
Genome polyprotein NS3 helicase domain: Genome polyprotein, NS3 helicase domain (Hepatitis C virus genotype 1b, UniProt Q9WMX2)
ESR1: Estrogen receptor (ESR1, Homo sapiens, UniProt P03372)
Sequence of UniProt Q14683 (whole entry, looked up): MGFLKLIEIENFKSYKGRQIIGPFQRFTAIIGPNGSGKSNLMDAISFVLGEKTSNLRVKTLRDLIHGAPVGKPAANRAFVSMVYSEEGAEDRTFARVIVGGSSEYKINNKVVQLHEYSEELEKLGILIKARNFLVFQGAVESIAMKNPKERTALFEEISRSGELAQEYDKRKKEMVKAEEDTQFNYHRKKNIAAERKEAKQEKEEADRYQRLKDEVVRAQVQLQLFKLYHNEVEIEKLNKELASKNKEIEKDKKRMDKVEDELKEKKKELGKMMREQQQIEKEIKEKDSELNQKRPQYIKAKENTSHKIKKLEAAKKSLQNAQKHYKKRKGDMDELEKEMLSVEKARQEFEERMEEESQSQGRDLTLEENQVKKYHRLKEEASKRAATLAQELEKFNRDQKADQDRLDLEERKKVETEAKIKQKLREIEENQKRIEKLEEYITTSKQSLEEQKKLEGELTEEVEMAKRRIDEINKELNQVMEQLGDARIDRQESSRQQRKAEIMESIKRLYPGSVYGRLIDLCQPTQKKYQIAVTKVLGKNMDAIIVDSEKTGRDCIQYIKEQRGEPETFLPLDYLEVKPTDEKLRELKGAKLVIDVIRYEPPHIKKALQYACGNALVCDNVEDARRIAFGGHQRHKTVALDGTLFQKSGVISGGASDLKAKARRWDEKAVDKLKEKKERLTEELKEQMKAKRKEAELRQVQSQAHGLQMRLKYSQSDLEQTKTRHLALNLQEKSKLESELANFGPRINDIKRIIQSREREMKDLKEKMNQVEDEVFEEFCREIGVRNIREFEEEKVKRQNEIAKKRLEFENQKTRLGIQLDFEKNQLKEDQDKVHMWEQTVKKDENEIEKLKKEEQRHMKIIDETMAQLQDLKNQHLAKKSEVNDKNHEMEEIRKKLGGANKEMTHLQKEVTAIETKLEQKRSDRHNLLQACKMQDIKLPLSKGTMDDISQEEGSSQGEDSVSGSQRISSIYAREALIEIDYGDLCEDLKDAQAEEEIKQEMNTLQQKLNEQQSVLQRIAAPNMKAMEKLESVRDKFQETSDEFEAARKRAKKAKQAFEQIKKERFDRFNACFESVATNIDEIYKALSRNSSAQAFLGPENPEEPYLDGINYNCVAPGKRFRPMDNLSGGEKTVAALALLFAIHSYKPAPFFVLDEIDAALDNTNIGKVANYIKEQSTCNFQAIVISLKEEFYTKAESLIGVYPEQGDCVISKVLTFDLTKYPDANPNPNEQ

SMILES | target | assay | test system | setting | how to read | endpoint | result
Nc1ncnc2c(CN3CC(CSc4ccc(Cl)cc4)[C@H](O)C3)c[nH]c12 (stereo partly drawn) | Aminodeoxyfutalosine nucleosidase (Helicobacter pylori, UniProt Q9ZMY2) | radiolabel chase ultrafiltration |  | pH 7.4, inhibitor off-rate |  | k4 | 0.23 min⁻¹
N[C@@H](Cc1ccc(O)cc1)C(=O)O | N-alpha-acetyltransferase 80 (NAA80, Homo sapiens, UniProt Q93015) | substrate, DTNB |  | 2 mM, 30 min, 37 °C, together with: acetyl-CoA 500 µM |  | product formation | 4.12 µM
CC[C@H](C)[C@H](NC(=O)[C@H](CCCCN)NC(=O)CNC(=O)[C@@H](NC(=O)[C@@H](NC(=O)[C@H](CCSC)NC(=O)[C@H](Cc1c[nH]cn1)NC(=O)CN)[C@@H](C)O)C(C)C)C(=O)N[C@@H](Cc1ccc(O)cc1)C(=O)N[C@@H](C)C(=O)N[C@@H](C)C(=O)N[C@@H](CCSC)C(=O)N[C@@H](CCSC)C(=O)N[C@H](C(=O)N[C@@H](CCSC)C(=O)N[C@@H](CCC(=O)O)C(=O)N[C@@H](C)C(=O)N[C@@H](Cc1ccc(O)cc1)C(=O)N[C@@H](CCCNC(=N)N)C(=O)N[C@@H](CCC(N)=O)C(=O)N[C@@H](CO)C(=O)N[C@@H](CCCCN)C(=O)N[C@@H](C)C(=O)N[C@@H](CCCCN)C(=O)N[C@@H](CCCCN)C(=O)N[C@@H](CC(C)C)C(=O)N[C@@H](CCC(N)=O)C(=O)N[C@@H](C)C(=O)N[C@@H](CCSC)C(=O)N[C@@H](CCCNC(=N)N)C(=O)O)[C@@H](C)CC | CALM1 Ca2+-bound N-lobe | binding, isothermal titration calorimetry |  | pH 7.4, 15 °C, N-lobe, CaV2.1 IQ domain, together with: Ca2+ |  | stoichiometry | 0.95 ± 0.19
N#Cc1cccc2c1CC[C@H]2NC(=O)c1ccc(S(=O)(=O)NCc2ccco2)cc1 | WD repeat-containing protein 91 WD40 domain, residues 392–747 | SPR |  | 45 µM |  | binding | 56% and 48%
O=c1nc(SCc2cc(F)cc(C(F)(F)F)c2)nc(SCc2ccc3sccc3c2)[nH]1 | TOP2A (Homo sapiens, UniProt P11388) | ATPase activity |  | 1.95 µM, together with: ATP 0.025 mM |  | ATP hydrolysis rate | 0.363 µM/min and 0.218 µM/min
Nc1ncnc2c1ncn2[C@@H]1O[C@H](COP(=O)(O)CP(=O)(O)OP(=O)(O)O)[C@@H](O)[C@H]1O | P2X purinoceptor 1 (P2RX1, Homo sapiens, UniProt P51575, K136W) | saturation binding | HEK293 | 52 nM |  | specific binding | 3080 CCPM and 2440 CCPM
O=C(CCl)N1N=C(c2ccc(Br)cc2)CC1c1ccc(Br)cc1 (stereo not drawn) | 14-3-3 protein sigma, with ERα phosphopeptide (SFN, Homo sapiens, UniProt P31947) | binding, fluorescence polarization |  | covalent ligand screen, together with: phosphorylated ERalpha peptide | reference: control | FP signal | 93%
COC(=O)c1ccc(NC(=O)CSc2nnc(-c3ccc(NC(C)=O)cc3)n2C)cc1 | CDK2 | binding |  |  |  | Kd | > 100 µM
CCCCCCCCCCCc1ccc([C@H]2CC[C@H]([N+](C)(C)CCC)CC2)cc1.[I-] | SPHK1 (Homo sapiens, UniProt Q9NYA1) | inhibitor, radiometric flash-plate | cell lysate | together with: sphingosine 10 µM |  | Ki/Km ratio | 1.5
Oc1ccc(/C=C/c2cc(O)cc(O)c2)cc1 | O-methyltransferase (Sorghum bicolor, UniProt A0A1B6PFV1) | biolayer interferometry |  | together with: saturating SAH |  | cooperativity factor σ | 12
CC(C)NCC(O)COc1cccc2ccccc12 (stereo not drawn) | Glutamate receptor 2 (Homo sapiens, UniProt P42262) | ion current, agonist, SyncroPatch patch clamp | HEK293 | 30 µM |  | activation | 6%
O=C(COP(=O)(O)O)[C@@H](O)[C@H](O)[C@H](O)COP(=O)(O)O | Structural maintenance of chromosomes protein 1A (Homo sapiens, UniProt Q14683) | thermal proteome profiling, refers to: SMC1A | HepG2 cell lysate | concentration not given, 57 over 37 °C | reference: compound over control | thermal stability ratio | 0.444 and 0.667 and 0.786
COCCc1ccc(OCC(O)CNC(C)C)cc1.O=C(O)C(O)C(O)C(=O)O (racemic) | Genome polyprotein NS3 helicase domain | DNA binding, inhibitor | hepatitis C virus | 100 µM, together with: Cy5-dT15 DNA |  | inhibition | 1%
CCCCN1/C(=C/C=C(Br)/C=C/C2=[N+](CCCC)c3ccc(Br)cc3C2(C)C)C(C)(C)c2cc(Br)ccc21.[I-] | PRMT3 (Homo sapiens, UniProt O60678) | inhibitor, filter binding |  | together with: R4 peptide substrate |  | Hill coefficient | 1.67
O=S(=O)(NC1CCN(c2ncnc3c2nc(-c2ccccc2Cl)n3-c2ccc(Cl)cc2)CC1)c1ccc(F)c(F)c1 | CNR1 (Homo sapiens, UniProt P21554) | binding, [3H]CP55940 displacement |  |  | reference: Ki CB2 over Ki CB1 | selectivity ratio | > 5000
Nc1ncnc2c1ncn2[C@@H]1O[C@H](COP(=O)(O)OP(=O)(O)NP(=O)(O)O)[C@@H](O)[C@H]1O | Cell cycle histidine kinase CckA, CA domain (Caulobacter vibrioides, UniProt Q9X688) | isothermal titration calorimetry | Caulobacter crescentus | concentration not given, 12 °C, together with: without c-di-GMP |  | binding enthalpy (ΔH) | -1.9 kcal/mol
CN1CCc2ccc(C(=O)N3CCN(C(=O)C4CCC(C#N)CC4)CC3)cc2C1 (stereo not drawn) | WD repeat-containing protein 91 WD40 domain, residues 392–747 | binding, SPR single-concentration screen |  | 45 µM |  | SPR response | -2.2 RU and -4 RU
CCOc1cc(-c2nncn2C)ccc1Nc1ncc2cc(C)nc(NCC(C)(C)C)c2n1 | WEE1 (Homo sapiens, UniProt P30291) | binding, LanthaScreen binding |  | 1 µM |  | displacement | 36%
COC(=O)[C@@H]1[C@H]2C[C@H]3c4[nH]c5ccccc5c4CCN3C[C@@H]2CC[C@@H]1O | Genome polyprotein NS3 helicase domain | DNA binding, inhibitor | hepatitis C virus | 100 µM, together with: Cy5-dT15 DNA |  | inhibition | 0%
O=C(O)C1CCCNC1 (stereo not drawn) | SLC6A6 (Homo sapiens, UniProt P31641, Y138A) | binding, microscale thermophoresis |  | 32.7 nM, fitted curve | higher = more binding | fraction bound | 0.00162
COc1ccc(C(=O)N[C@@H]2CCc3c(C#N)cccc32)cc1 | WD repeat-containing protein 91 WD40 domain, residues 392–747 | binding, SPR single-concentration screen |  | 45 µM |  | SPR response | 2.7 RU and 10.1 RU
Nc1nc2c(cnn2CCc2ccccc2)c2nc(-c3ccco3)nn12 | Genome polyprotein NS3 helicase domain | DNA binding, inhibitor | hepatitis C virus | 100 µM, together with: Cy5-dT15 DNA |  | inhibition | 0%
CN1CCN(C(=O)CN(c2cc(C(F)(F)F)ccc2Cl)S(=O)(=O)c2ccccc2)CC1 | CDK2 | binding |  |  |  | Kd | > 100 µM
O=c1c(O[C@@H]2O[C@H](CO)[C@@H](O)[C@H](O)[C@H]2O)c(-c2ccc(O)c(O)c2)oc2cc(O)cc(O)c12 | ESR1 | array formation | PRL-HeLa |  | reference: EC50 ERβ over EC50 ERα | selectivity ratio | 0.756
CCC1(C)CC(=O)NC1=O (stereo not drawn) | Genome polyprotein NS3 helicase domain | DNA binding, inhibitor | hepatitis C virus | 100 µM, together with: Cy5-dT15 DNA |  | inhibition | 0%
Cc1ccc(N2CC(C(N)=O)CC2=O)cc1 (stereo not drawn) | Transducin-like enhancer protein 4 (TLE4, Homo sapiens, UniProt Q04727) | binding, affinity selection mass spectrometry |  |  | reference: other proteins in batch | log fold enrichment | -0.114
CC[C@H](C)[C@H](NC(=O)[C@H](CCCCN)NC(=O)CNC(=O)[C@@H](NC(=O)[C@@H](NC(=O)[C@H](CCSC)NC(=O)[C@H](Cc1c[nH]cn1)NC(=O)CN)[C@@H](C)O)C(C)C)C(=O)N[C@@H](Cc1ccc(O)cc1)C(=O)N[C@@H](C)C(=O)N[C@@H](C)C(=O)N[C@@H](CCSC)C(=O)N[C@@H](CCSC)C(=O)N[C@H](C(=O)N[C@@H](CCSC)C(=O)N[C@@H](CCC(=O)O)C(=O)N[C@@H](Cc1ccc(O)cc1)C(=O)N[C@@H](Cc1ccc(O)cc1)C(=O)N[C@@H](CCCNC(=N)N)C(=O)N[C@@H](CCC(N)=O)C(=O)N[C@@H](CO)C(=O)N[C@@H](CCCCN)C(=O)N[C@@H](C)C(=O)N[C@@H](CCCCN)C(=O)N[C@@H](CCCCN)C(=O)N[C@@H](CC(C)C)C(=O)N[C@@H](CCC(N)=O)C(=O)N[C@@H](C)C(=O)N[C@@H](CCSC)C(=O)N[C@@H](CCCNC(=N)N)C(=O)O)[C@@H](C)CC | CALM1 Ca2+-bound N-lobe | binding, isothermal titration calorimetry |  | pH 7.4, 15 °C, N-lobe, CaV2.1 IQ domain, together with: Ca2+ |  | ΔS | 14.7 ± 1.4 cal/mol/K
OC[C@H]1O[C@H]([S-])[C@H](O)[C@@H](O)[C@@H]1O.[Au+] | Genome polyprotein NS3 helicase domain | DNA binding, inhibitor | hepatitis C virus | 100 µM, together with: Cy5-dT15 DNA |  | inhibition | 36%
COc1cc(/C=C/c2cc(/C=C/c3ccc(O)c(OC)c3)n(-c3ccc(Cl)cc3Cl)n2)ccc1O | haemin | isothermal titration calorimetry |  | concentration not given, pH 7.4, 37 °C |  | binding stoichiometry | 0.5 ± 0.2
COc1ccc(-c2coc3cc(O)ccc3c2=O)cc1 | ESR1 | array formation | PRL-HeLa |  | reference: EC50 ERβ over EC50 ERα | selectivity ratio | 0.527

Some of these lines once more:
SMILES | target | assay | test system | setting | how to read | endpoint | result
COc1ccc(-c2coc3cc(O)ccc3c2=O)cc1 | ESR1 | array formation | PRL-HeLa |  | reference: EC50 ERβ over EC50 ERα | selectivity ratio | 0.527
Cc1ccc(N2CC(C(N)=O)CC2=O)cc1 (stereo not drawn) | Transducin-like enhancer protein 4 (TLE4, Homo sapiens, UniProt Q04727) | binding, affinity selection mass spectrometry |  |  | reference: other proteins in batch | log fold enrichment | -0.114
